# Measurements gathered from unrelated publications.
# Each numbered part is a random draw from the data of one study; scales do not carry over between parts. Several values in a cell are separate wells, animals, samples, runs or records.
# UniProt Q9HAZ1, sequence (whole entry, looked up): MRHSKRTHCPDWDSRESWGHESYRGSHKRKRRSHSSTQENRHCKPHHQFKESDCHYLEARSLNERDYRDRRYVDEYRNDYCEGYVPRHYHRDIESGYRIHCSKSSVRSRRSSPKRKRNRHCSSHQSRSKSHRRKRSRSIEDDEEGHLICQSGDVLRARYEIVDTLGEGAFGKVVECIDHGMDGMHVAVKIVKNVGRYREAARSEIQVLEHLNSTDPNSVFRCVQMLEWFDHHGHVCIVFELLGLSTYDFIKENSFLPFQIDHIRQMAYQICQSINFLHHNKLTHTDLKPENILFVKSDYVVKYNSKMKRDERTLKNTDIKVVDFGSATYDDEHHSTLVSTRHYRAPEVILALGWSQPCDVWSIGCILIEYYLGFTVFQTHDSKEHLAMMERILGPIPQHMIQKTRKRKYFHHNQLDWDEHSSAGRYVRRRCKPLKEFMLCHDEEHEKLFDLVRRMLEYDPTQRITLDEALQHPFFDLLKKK
# UniProt Q99683, sequence (whole entry, looked up): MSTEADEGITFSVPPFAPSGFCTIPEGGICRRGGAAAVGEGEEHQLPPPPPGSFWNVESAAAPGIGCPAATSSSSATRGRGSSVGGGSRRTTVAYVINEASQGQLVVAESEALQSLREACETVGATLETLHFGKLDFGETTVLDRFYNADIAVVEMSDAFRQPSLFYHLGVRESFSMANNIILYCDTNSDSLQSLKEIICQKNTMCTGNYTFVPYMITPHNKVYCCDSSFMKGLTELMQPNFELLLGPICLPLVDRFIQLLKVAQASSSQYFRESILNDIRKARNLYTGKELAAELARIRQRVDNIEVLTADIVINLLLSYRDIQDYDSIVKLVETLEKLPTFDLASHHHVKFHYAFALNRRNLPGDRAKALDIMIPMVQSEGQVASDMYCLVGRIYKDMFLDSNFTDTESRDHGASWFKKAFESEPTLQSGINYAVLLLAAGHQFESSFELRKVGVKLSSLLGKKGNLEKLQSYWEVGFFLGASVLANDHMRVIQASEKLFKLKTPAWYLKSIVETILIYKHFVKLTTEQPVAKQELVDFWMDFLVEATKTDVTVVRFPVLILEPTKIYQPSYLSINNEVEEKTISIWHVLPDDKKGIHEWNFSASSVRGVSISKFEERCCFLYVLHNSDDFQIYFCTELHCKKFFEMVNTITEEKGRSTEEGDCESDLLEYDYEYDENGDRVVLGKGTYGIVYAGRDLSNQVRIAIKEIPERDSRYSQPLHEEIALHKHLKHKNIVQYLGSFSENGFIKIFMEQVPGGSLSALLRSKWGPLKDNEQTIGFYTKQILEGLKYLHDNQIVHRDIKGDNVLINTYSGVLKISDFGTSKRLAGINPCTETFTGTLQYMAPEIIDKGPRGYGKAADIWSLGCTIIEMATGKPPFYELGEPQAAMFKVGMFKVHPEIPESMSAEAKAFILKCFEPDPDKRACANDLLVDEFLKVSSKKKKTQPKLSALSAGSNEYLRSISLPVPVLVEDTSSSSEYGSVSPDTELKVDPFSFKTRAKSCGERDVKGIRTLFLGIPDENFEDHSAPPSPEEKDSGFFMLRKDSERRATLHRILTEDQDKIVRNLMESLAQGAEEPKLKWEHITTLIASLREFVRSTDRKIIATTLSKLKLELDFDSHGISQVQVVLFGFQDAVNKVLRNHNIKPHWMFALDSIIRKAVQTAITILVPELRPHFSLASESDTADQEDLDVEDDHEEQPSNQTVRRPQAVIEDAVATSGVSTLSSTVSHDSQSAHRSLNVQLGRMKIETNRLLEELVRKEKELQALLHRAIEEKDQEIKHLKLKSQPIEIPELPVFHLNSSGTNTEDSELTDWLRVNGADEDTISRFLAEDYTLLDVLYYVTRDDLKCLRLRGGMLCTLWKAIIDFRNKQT
# UniProt Q96NX5, sequence (whole entry, looked up): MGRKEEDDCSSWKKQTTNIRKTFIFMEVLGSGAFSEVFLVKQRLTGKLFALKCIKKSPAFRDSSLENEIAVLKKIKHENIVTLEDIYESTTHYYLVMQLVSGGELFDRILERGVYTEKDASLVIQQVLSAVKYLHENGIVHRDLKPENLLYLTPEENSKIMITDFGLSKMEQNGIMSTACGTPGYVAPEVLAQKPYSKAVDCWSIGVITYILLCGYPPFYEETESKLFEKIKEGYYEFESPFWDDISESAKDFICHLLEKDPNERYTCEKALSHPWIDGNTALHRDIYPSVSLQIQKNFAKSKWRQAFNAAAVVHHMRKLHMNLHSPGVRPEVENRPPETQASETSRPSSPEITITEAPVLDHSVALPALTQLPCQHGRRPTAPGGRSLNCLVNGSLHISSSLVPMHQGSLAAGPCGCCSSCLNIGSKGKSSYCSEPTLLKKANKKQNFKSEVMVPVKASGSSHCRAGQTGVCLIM
# UniProt P11309, sequence (whole entry, looked up): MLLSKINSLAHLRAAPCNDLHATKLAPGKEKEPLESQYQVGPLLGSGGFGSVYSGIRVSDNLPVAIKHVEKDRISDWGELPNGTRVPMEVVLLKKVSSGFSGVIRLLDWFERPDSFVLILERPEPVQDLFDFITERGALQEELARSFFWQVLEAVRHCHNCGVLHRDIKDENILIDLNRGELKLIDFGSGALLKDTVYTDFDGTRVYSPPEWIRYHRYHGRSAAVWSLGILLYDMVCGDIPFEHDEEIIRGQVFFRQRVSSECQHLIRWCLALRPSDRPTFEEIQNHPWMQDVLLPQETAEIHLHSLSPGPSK

# Study 1
# Structure (SMILES): CC(C)S(=O)(=O)c1ccc2nccc(Nc3ccc4sc(C5CCCC5)nc4c3)c2c1.Cl
# Tested at: 1 µM
target,test,remaining activity
"Calcium/calmodulin-dependent protein kinase type 1G (CAMK1G, Homo sapiens, UniProt Q96NX5)","kinase activity, inhibitor",104%
"Serine/threonine-protein kinase ATR (ATR, Homo sapiens, UniProt Q13535)","kinase activity, inhibitor",121% and 96%
"Rho-associated protein kinase 1 (ROCK1, Homo sapiens, UniProt Q13464)","kinase activity, inhibitor",99%
"LIM domain kinase 1 (LIMK1, Homo sapiens, UniProt P53667)","kinase activity, inhibitor",83%
"Serine/threonine-protein kinase D2 (PRKD2, Homo sapiens, UniProt Q9BZL6)","kinase activity, inhibitor",94%
"[Pyruvate dehydrogenase (acetyl-transferring)] kinase isozyme 2, mitochondrial (PDK2, Homo sapiens, UniProt Q15119)","kinase activity, inhibitor",99%
"Ribosomal protein S6 kinase alpha-3 (RPS6KA3, Homo sapiens, UniProt P51812)","kinase activity, inhibitor",108%
ACTR2(h) (human),,99% and 96%
"Testis-specific serine/threonine-protein kinase 2 (TSSK2, Homo sapiens, UniProt Q96PF2)","kinase activity, inhibitor",90%
"Serine/threonine-protein kinase MRCK alpha (CDC42BPA, Homo sapiens, UniProt Q5VT25)","kinase activity, inhibitor",95%
"Interferon-induced, double-stranded RNA-activated protein kinase (EIF2AK2, Homo sapiens, UniProt P19525)","kinase activity, inhibitor",111%
"Cyclin-dependent kinase 9 (CDK9, Homo sapiens, UniProt P50750)","kinase activity, inhibitor",96%
"Serine/threonine-protein kinase pim-1 (PIM1, Homo sapiens, UniProt P11309)","kinase activity, inhibitor",100%
"Homeodomain-interacting protein kinase 1 (HIPK1, Homo sapiens, UniProt Q86Z02)","kinase activity, inhibitor",105%
"Cyclin-G-associated kinase (GAK, Homo sapiens, UniProt O14976)","kinase activity, inhibitor",103%
"Serine/threonine-protein kinase PLK2 (PLK2, Homo sapiens, UniProt Q9NYY3)","kinase activity, inhibitor",109%
"Tyrosine-protein kinase JAK3 (JAK3, Homo sapiens, UniProt P52333)","kinase activity, inhibitor",97%
"Activin receptor type-1 (ACVR1, Homo sapiens, UniProt Q04771)","kinase activity, inhibitor",112%
"Vascular endothelial growth factor receptor 1 (FLT1, Homo sapiens, UniProt P17948)","kinase activity, inhibitor",111%
"Serine/threonine-protein kinase D3 (PRKD3, Homo sapiens, UniProt O94806)","kinase activity, inhibitor",96%

# Study 2
# Structure (SMILES): Cc1ccc(NC2=CC(=O)c3sc(C)nc3C2=O)cc1
# Effect on: enzyme activity
# Action: inhibitor
# Tested at: 0.5 µM
# Baseline: control
target,remaining activity [%]
"Protein-tyrosine kinase 2-beta (PTK2B, Homo sapiens, UniProt Q14289)",90.2
"Homeodomain-interacting protein kinase 3 (HIPK3, Homo sapiens, UniProt Q9H422)",101
"Dual specificity tyrosine-phosphorylation-regulated kinase 4 (DYRK4, Homo sapiens, UniProt Q9NR20)",97.9
"Calcium/calmodulin-dependent protein kinase type 1D (CAMK1D, Homo sapiens, UniProt Q8IU85)",100
"G protein-coupled receptor kinase 5 (GRK5, Homo sapiens, UniProt P34947)",106
"Serine/threonine-protein kinase N2 (PKN2, Homo sapiens, UniProt Q16513)",115
"Proto-oncogene tyrosine-protein kinase receptor Ret (RET, Homo sapiens, UniProt P07949)",97.6
"Aurora kinase A (AURKA, Homo sapiens, UniProt O14965)",110
"Mitogen-activated protein kinase kinase kinase 2 (MAP3K2, Homo sapiens, UniProt Q9Y2U5)",93.3
"STE20-like serine/threonine-protein kinase (SLK, Homo sapiens, UniProt Q9H2G2)",80.6
"Calcium/calmodulin-dependent protein kinase type 1G (CAMK1G, Homo sapiens, UniProt Q96NX5)",95
"Mitogen-activated protein kinase kinase kinase 8 (MAP3K8, Homo sapiens, UniProt P41279)",90.2
"Epidermal growth factor receptor (EGFR, Homo sapiens, UniProt P00533)",97.9
"Rho-associated protein kinase 2 (ROCK2, Homo sapiens, UniProt O75116)",85.1
"Cyclin-dependent kinase 7 (CDK7, Homo sapiens, UniProt P50613)",95.4
"Serine/threonine-protein kinase Nek9 (NEK9, Homo sapiens, UniProt Q8TD19)",99.4
"Serine/threonine-protein kinase BRSK1 (BRSK1, Homo sapiens, UniProt Q8TDC3)",88.6
"Casein kinase II subunit alpha' (CSNK2A2, Homo sapiens, UniProt P19784)",87.8
"Proto-oncogene tyrosine-protein kinase ROS (ROS1, Homo sapiens, UniProt P08922)",107
"Myotonin-protein kinase (DMPK, Homo sapiens, UniProt Q09013)",103
"NT-3 growth factor receptor (NTRK3, Homo sapiens, UniProt Q16288)",94
"Serine/threonine-protein kinase D1 (PRKD1, Homo sapiens, UniProt Q15139)",102
"Mitogen-activated protein kinase 10 (MAPK10, Homo sapiens, UniProt P53779)",105

# Study 3
# Compound: C[C@@H]1CN(c2cc(-c3nn(C)c4ccc(OC5(C)CC5)cc34)ncn2)C[C@H](C)O1
# MAP3K14: Mitogen-activated protein kinase kinase kinase 14 (MAP3K14, Homo sapiens, UniProt Q99558)
# TTK: Dual specificity protein kinase TTK (TTK, Homo sapiens, UniProt P33981)
target,test,system,EC50
MAP3K14,"target engagement, NanoBRET",live cells,> 50 µM
"Leucine-rich repeat serine/threonine-protein kinase 2 (LRRK2, Homo sapiens, UniProt Q5S007)","target engagement, NanoBRET",live cells,> 50 µM
"Dual specificity protein kinase CLK2 (CLK2, Homo sapiens, UniProt P49760)","target engagement in cells, BRET",,11 µM
MAP3K14,"target engagement in cells, BRET",,> 50 µM
"Mitogen-activated protein kinase kinase kinase 5 (MAP3K5, Homo sapiens, UniProt Q99683)","target engagement, NanoBRET",live cells,8.27 µM and 1.16 µM and 2.98 µM
TTK,"target engagement, NanoBRET",live cells,> 50 µM
TTK,"target engagement in cells, BRET",,> 50 µM
"Dual specificity protein kinase CLK4 (CLK4, Homo sapiens, UniProt Q9HAZ1)","target engagement, NanoBRET",live cells,4.38 µM and 9.18 µM and 5.12 µM

# Study 4
# Compound: O=C1CCC(N2Cc3cc(C4CCN(Cc5ccccc5)CC4)ccc3C2=O)C(=O)N1 (stereo not shown)
# Action: degrader
# SALL4: Sal-like protein 4 (SALL4, Homo sapiens, UniProt Q9UJQ4)
# UniProt Q9UJQ4, sequence (whole entry, looked up): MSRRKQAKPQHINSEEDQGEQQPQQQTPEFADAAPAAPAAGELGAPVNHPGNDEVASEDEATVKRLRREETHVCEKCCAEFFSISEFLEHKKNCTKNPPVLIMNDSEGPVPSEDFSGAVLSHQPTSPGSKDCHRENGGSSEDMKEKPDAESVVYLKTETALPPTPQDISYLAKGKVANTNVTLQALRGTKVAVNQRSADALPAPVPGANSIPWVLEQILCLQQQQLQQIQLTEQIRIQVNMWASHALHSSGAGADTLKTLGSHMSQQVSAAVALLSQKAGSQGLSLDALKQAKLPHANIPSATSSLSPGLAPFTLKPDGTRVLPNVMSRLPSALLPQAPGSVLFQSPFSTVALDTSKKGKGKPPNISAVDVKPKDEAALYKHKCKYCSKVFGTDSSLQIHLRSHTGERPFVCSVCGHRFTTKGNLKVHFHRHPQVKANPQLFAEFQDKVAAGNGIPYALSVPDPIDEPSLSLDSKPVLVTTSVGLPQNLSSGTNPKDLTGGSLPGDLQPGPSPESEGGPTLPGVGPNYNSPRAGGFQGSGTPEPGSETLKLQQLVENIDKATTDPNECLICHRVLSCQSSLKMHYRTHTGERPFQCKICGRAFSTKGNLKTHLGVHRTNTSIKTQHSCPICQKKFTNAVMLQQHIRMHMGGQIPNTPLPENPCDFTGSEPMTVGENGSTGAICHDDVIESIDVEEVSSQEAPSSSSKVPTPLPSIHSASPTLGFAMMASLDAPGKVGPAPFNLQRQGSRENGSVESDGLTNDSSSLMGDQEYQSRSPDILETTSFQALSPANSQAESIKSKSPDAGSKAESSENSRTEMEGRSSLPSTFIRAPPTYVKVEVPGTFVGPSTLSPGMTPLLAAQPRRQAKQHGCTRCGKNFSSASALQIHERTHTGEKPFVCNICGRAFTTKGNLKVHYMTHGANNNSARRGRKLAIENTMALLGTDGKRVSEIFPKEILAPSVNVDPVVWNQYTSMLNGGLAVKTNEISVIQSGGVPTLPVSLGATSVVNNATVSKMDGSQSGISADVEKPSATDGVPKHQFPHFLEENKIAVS
# GSPT1: Eukaryotic peptide chain release factor GTP-binding subunit ERF3A (GSPT1, Homo sapiens, UniProt P15170)
# UniProt P15170, sequence (whole entry, looked up): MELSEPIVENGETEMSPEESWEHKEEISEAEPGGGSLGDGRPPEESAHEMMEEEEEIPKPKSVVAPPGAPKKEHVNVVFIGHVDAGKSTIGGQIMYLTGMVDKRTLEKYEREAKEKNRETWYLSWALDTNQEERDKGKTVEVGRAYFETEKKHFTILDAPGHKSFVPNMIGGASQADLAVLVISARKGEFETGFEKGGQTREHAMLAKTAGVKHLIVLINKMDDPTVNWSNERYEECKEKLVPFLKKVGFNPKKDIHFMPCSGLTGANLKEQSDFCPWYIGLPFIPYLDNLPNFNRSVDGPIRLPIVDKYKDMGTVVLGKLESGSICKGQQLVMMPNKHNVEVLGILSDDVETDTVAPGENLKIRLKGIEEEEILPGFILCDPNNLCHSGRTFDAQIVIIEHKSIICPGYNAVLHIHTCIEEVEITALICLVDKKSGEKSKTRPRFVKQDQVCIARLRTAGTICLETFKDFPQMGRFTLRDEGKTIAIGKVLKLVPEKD
# CRBN/Zinc finger protein Helios: CRBN/Zinc finger protein Helios (Homo sapiens, UniProt Q96SW2+Q9UKS7)
# Zinc finger protein Aiolos: Zinc finger protein Aiolos (Homo sapiens, UniProt Q9UKT9)
# UniProt Q9UKT9, sequence (whole entry, looked up): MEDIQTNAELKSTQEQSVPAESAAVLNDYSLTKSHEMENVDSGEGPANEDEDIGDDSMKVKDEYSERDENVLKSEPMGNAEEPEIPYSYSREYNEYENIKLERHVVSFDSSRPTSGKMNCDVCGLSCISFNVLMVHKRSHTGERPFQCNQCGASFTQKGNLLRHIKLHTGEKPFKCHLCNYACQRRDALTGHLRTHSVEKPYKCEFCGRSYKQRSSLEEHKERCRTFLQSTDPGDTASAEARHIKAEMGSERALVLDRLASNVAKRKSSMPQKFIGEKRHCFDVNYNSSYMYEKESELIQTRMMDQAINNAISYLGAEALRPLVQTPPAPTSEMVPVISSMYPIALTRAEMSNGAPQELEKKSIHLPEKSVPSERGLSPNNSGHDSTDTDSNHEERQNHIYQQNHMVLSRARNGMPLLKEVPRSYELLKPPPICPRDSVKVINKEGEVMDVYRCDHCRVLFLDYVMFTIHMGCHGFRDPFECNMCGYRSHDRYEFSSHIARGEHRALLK
# CSNK1A1: Casein kinase I isoform alpha (CSNK1A1, Homo sapiens, UniProt P48729)
# UniProt P48729, sequence (whole entry, looked up): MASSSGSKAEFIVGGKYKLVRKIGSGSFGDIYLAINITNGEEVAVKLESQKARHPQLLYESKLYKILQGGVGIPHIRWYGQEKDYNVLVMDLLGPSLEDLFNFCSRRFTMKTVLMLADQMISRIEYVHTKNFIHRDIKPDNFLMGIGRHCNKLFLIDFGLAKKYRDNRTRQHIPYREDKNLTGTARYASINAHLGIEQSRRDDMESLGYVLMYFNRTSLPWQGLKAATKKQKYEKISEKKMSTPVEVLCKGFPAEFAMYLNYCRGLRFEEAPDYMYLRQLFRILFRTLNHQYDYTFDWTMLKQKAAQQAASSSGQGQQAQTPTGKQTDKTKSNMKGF
target,test,system,setting,remaining protein
"Zinc finger protein Eos (IKZF4, Homo sapiens, UniProt Q9H2S9)",HiBiT,HEK293,"0.01235 µM, 6 h",113%
SALL4,HiBiT,HEK293,0.3704 µM,52.7% and 51.7%
GSPT1,HiBiT,HEK293,"1.111 µM, 6 h",124%
CRBN/Zinc finger protein Helios,flow cytometry,primary human regulatory T cells,"0.004115 µM, 3 h",101%
"DNA-binding protein Ikaros (Homo sapiens, UniProt Q13422)",HiBiT,HEK293,"0.0001694 µM, 6 h",94.1%
SALL4,HiBiT,HEK293,0.1235 µM,48.4% and 56.5%
SALL4,HiBiT,HEK293,1.111 µM,47.9% and 49.8%
Zinc finger protein Aiolos,HiBiT,HEK293,"0.0005081 µM, 6 h",87.9%
Zinc finger protein Aiolos,HiBiT,HEK293,0.0001694 µM,98.9% and 98.6%
SALL4,HiBiT,HEK293,"3.333 µM, 6 h",46.1%
CRBN/Zinc finger protein Helios,flow cytometry,primary human regulatory T cells,"0.3333 µM, 6 h",50.6%
CSNK1A1,HiBiT,HEK293 HiBiT-CK1α,1111.11 nM,85.4% and 94.1%
SALL4,HiBiT,HEK293,"1.111 µM, 6 h",47.9%
GSPT1,HiBiT,HEK293,10 µM,116% and 109%
CSNK1A1,HiBiT,HEK293 HiBiT-CK1α,0.1694 nM,95.1% and 107%
SALL4,HiBiT,HEK293,"0.04115 µM, 6 h",54.2%
